Assay results of several laboratories.
Lines come from different studies, so protocols differ. “And” joins repeats or separate records; there may be more than shown. Numbers after ± are the reported error.
KRAS G12D GDP-bound: GTPase KRas, GDP-bound (KRAS, Homo sapiens, UniProt P01116, G12D)
ALB: Albumin (ALB, Homo sapiens, UniProt P02768)
uncharacterized protein: uncharacterized protein (Spodoptera exigua, UniProt F1CEY0)

SMILES	tested on	assay	test system	conditions	scale	endpoint	value
CC[C@H](C)[C@@H]1NC(=O)[C@H](Cc2ccc(-c3ccccc3)cc2)NC(=O)[C@H](CC(C)C)NC(=O)[C@@H]2[C@H]3CC[C@H](C3)N2C(=O)[C@@H](NC(=O)[C@H](CCCNC(=N)N)NC(=O)[C@H](CCCNC(=N)N)NC(C)=O)CSSC[C@@H](C(=O)N[C@@H](CCCNC(=N)N)C(=O)N[C@@H](CCCNC(=N)N)C(N)=O)NC(=O)[C@H](C(C)C)NC(=O)[C@@H]2CCCN2C(=O)[C@H](CC(=O)O)NC(=O)[C@H](Cc2ccc(O)cc2)NC(=O)[C@H](CO)NC1=O	KRAS G12D GDP-bound	affinity selection mass spectrometry	–	mixture library 3, together with: protein titration up to 2.5 µM	lower is stronger binding	lowest bound protein concentration	0.31 to 0.62 µM
Cn1cc(-c2ccc(-c3cncc(Cl)c3N3CCC4(CCNC4=O)CC3)cc2)cn1	COLO 205	gene expression, microarray, refers to: HSPA1B mRNA	–	concentration not given, 6 h	reference: untreated cells	log2 fold change	4.31
Nc1ncnc2c1ncn2[C@@H]1O[C@H](COP(=O)(O)OP(=O)(O)OP(=O)(O)O)[C@@H](O)[C@H]1O	P2X purinoceptor 7 (P2rx7, Rattus norvegicus, UniProt Q64663, I214A/Q143A)	ion current, agonist, two-electrode voltage clamp	Xenopus laevis oocytes	300 µM	reference: highest concentration response	normalized current	0.52 and 0.44 and 0.54
N[C@H](CNC(=O)c1ccc(-c2cccc3ccccc23)s1)C(=O)O	Glutamate receptor ionotropic, NMDA 1, with GluN2D (Grin1, Rattus norvegicus, UniProt P35439)	–	–	together with: glutamate 300 µM	–	Hill slope	1.4
NC/C(=C\F)COc1cccc(Cn2c(=S)[nH]c(=O)c3[nH]cnc32)c1	Glutamate receptor ionotropic, NMDA 1 (Grin1, Rattus norvegicus, UniProt P35439)	radioligand binding, refers to: glycine site binding	–	10 µM	–	inhibition	< 50%
CC(=O)N[C@H](C(=O)N1C[C@H](O)C[C@H]1C(=O)NCc1ccc(-c2scnc2C)cc1)C(C)(C)SCCCCCCNC(=O)C[C@@H]1N=C(c2ccc(Cl)cc2)c2c(sc(C)c2C)-n2c(C)nnc21	von Hippel-Lindau disease tumor suppressor, with elongin B/C (VHL, Homo sapiens, UniProt P40337)	ITC	–	25 °C, binary	–	ΔG	-8.85 ± 0.06 kcal/mol
CC[C@H](C)[C@@H]1NC(=O)[C@H](Cc2ccc(O)cc2)NC(=O)[C@H](CC(C)C)NC(=O)[C@@H]2CCCN2C(=O)[C@@H](NC(=O)[C@H](CCCNC(=N)N)NC(=O)[C@H](CCCNC(=N)N)NC(C)=O)CSSC[C@@H](C(=O)N[C@@H](CCCNC(=N)N)C(=O)N[C@@H](CCCNC(=N)N)C(N)=O)NC(=O)[C@H](C(C)C)NC(=O)[C@@H]2CCCN2C(=O)[C@H](CC(=O)O)NC(=O)[C@H](Cc2ccc(O)cc2)NC(=O)[C@H](CO)NC1=O	KRAS G12D GDP-bound	affinity selection mass spectrometry	–	mixture library 1, together with: protein titration up to 5 µM	lower is stronger binding	lowest bound protein concentration	0.08 µM
Nc1ncnc2c1ncn2[C@@H]1O[C@H](COP(=O)(O)CP(=O)(O)OP(=O)(O)O)[C@@H](O)[C@H]1O	P2X purinoceptor 1 (P2RX1, Homo sapiens, UniProt P51575, K136A)	calcium influx	–	31.6 nM	reference: ionomycin response	calcium influx	7.58% and 14.9% and 12.2%
Cc1cn([C@H]2C[C@H](N=[N+]=[N-])[C@@H](CO)O2)c(=O)[nH]c1=O	UDP-glucuronosyltransferase 2B7 (UGT2B7, Homo sapiens, UniProt P16662)	glucuronidation, substrate	washed microsomes	together with: 2% BSA	–	Vmax	586 ± 128 pmol/min/mg protein
CC(C)c1noc2ncc(C(=O)c3ccccc3O)cc12	Sodium channel protein type 3 subunit alpha (Scn3a, Rattus norvegicus, UniProt P08104)	ion current, whole-cell patch-clamp	–	10 µM, rNaV1.3	–	inhibition	3.02%
C=CC(=O)N1CC2(CCN(c3nc(N[C@H](CC(=O)NC)CC(C)C)nc(-c4cccc(OC)c4OC)n3)C(C)C2)C1 (some centres unmarked)	GTPase KRas (KRAS, Homo sapiens, UniProt P01116, C118A/G12C)	covalent, DNA-encoded library screen	–	–	–	enrichment factor	72
OC[C@H]1O[C@@H](Oc2cc3c(O)cc(O)cc3[o+]c2-c2cc(O)c(O)c(O)c2)[C@H](O)[C@@H](O)[C@@H]1O	ALB	van't Hoff analysis	–	concentration not given	–	binding enthalpy change	-7.02 kcal/mol
CCCC[C@H]1C(=O)N(C)[C@@H](CCCC)C(=O)N[C@@H](CCCCNC(=O)CN2CCN(CC(=O)O)CCN(CC(=O)O)CC2)C(=O)N[C@H](C(=O)NCC(N)=O)CSCC(=O)N[C@@H](Cc2ccc(O)cc2)C(=O)N(C)[C@@H](C)C(=O)N[C@@H](CC(N)=O)C(=O)N2CCC[C@H]2C(=O)N[C@@H](Cc2c[nH]cn2)C(=O)N[C@@H](CCC(=O)O)C(=O)N2C[C@H](O)C[C@H]2C(=O)N[C@@H](Cc2c[nH]c3ccccc23)C(=O)N[C@@H](CO)C(=O)N[C@@H](Cc2cn(CC(=O)O)c3ccccc23)C(=O)N1C [gallium-68 labelled]	Programmed cell death 1 ligand 1 (CD274, Homo sapiens, UniProt Q9NZQ7)	PET/CT	human, primary tumour	–	–	SUVmax	5
C#Cc1c(F)ccc2cc(O)cc(-c3ncc4c(N5CC6CCC(C5)N6)nc(OC[C@@]56CCCN5C[C@H](F)C6)nc4c3F)c12	GTPase KRas, GppNHp-bound (KRAS, Homo sapiens, UniProt P01116, G12V)	binding	–	–	–	dissociation rate constant	0.00776 ± 0.00065 s⁻¹
C1CCCC1.C1CCCC1.[Cl][W][Cl]	ALB	binding, fluorescence quenching	–	310 K	–	Gibbs free energy change	-5.22 kcal/mol
N[C@H](CNC(=O)c1cc(Br)c(-c2ccccc2F)s1)C(=O)O	Glutamate receptor ionotropic, NMDA 1, with GluN2C (Grin1, Rattus norvegicus, UniProt P35439, F754L)	–	rat	together with: glutamate 300 µM	–	Hill slope	1.59

SMILES	tested on	assay	test system	conditions	scale	endpoint	value
[O-][S+]1CCCCS1 (centres unmarked)	Superoxide dismutase [Cu-Zn] (SOD1, Homo sapiens, UniProt P00441, G94A)	intact protein LC-MS	SOD1 G93A transgenic mice, whole blood	intravenous, 10 mg/kg, 4 h	–	target engagement	53.1% and 53%
CCNC(=O)/C=C/c1cccc(Br)c1	Sodium-dependent neutral amino acid transporter B(0)AT1 (SLC6A19, Homo sapiens, UniProt Q695T7)	inhibitor, FLIPR membrane potential	CHO-BC cells	100 µM	reference: uninhibited control	normalised signal	0.474 and 0.497 and 0.506 and 0.468 and 0.41
COc1ccc(F)cc1C(=O)NCc1ccc(-c2nn([C@@H](C)C(F)(F)F)c(N)c2C(N)=O)cc1	Casein kinase I isoform epsilon (CSNK1E, Homo sapiens, UniProt P49674)	kinase activity, inhibitor, HotSpot radiometric	–	100 nM, together with: ATP 10 µM	–	remaining activity	85.7 ± 0.6%
CNC1CCC(N(Cc2cccc(-c3ccncc3)c2)C(=O)c2sc3ccccc3c2Cl)CC1 (centres unmarked)	Protein smoothened (SMO, Homo sapiens, UniProt Q99835)	GTPγS binding	CHO stably expressing human SMO	concentration not given	–	decrease of basal signal	18 ± 2.6%
O=S(=O)(O)C1CCNCC1	Sodium- and chloride-dependent taurine transporter (SLC6A6, Homo sapiens, UniProt P31641, Y138A)	binding, microscale thermophoresis	–	1 mM, room temperature, together with: 50 nM labelled protein	higher = more binding	normalised MST signal	-0.0439
CC1(F)CN(C(=O)Cn2c(=O)c(C(=O)NCc3ccc(Cl)cc3)cc3nc(N4CCCC4=O)cnc32)C1	DNA polymerase catalytic subunit (Human cytomegalovirus, UniProt P08546)	enzyme activity, inhibitor	–	–	–	Hill slope	0.93
Nc1nc2c(ncn2[C@@H]2O[C@H](COP(=O)(O)O)[C@@H](O)[C@H]2O)c(=O)[nH]1	GUK1 (Homo sapiens, UniProt Q16774)	enzyme activity, NADH-coupled	–	500 µM, together with: NaCl 50 mM	–	reaction velocity	0.0854 µM/s and 0.0943 µM/s and 0.0824 µM/s
OCCc1ccccc1	uncharacterized protein	binding, competitor, fluorescence displacement	–	20 µM, pH 7.4, together with: 1-NPN 20 µM	reference: 1-NPN alone	relative fluorescence	71.2%
CC[C@@H](C)[C@@H](NC(=O)[C@@H](Cc1ccc(O)cc1)NC(=O)[C@H]1CCCN1C(=O)[C@@H](CCCNC(=N)N)NC(=O)[C@H](N)Cc1c[nH]cn1)C(=O)N[C@H](C)C(=O)N[C@H](Cc1c[nH]cn1)C(=O)N[C@H](CCCNC(=N)N)C(=O)N[C@@H](C(=O)N[C@H](Cc1ccc(O)cc1)C(=O)N[C@H](CO)C(=O)N[C@H](Cc1ccccc1)C(N)=O)C(C)C	Transferrin receptor protein 1 (Tfrc, Mus musculus, UniProt Q62351)	flow cytometry	DC2.4	24 h, pH 7.4, unit not given	reference: 0 h	surface TFRC expression	0.661
NCCCC[C@H](N)C(=O)Nc1ccc2ccccc2c1	Puromycin-sensitive aminopeptidase (Rattus norvegicus, UniProt F1M9V7)	substrate	–	–	–	Km	5 µM
CCCCCCCCCCCC(C)=O	uncharacterized protein	binding, competitor, fluorescence displacement	–	20 µM, pH 7.4, together with: 1-NPN 20 µM	reference: 1-NPN alone	relative fluorescence	60.3%
C=CC(=O)N1CCC(COCC(=O)N2CCN(c3nc(-c4cnc(N)nc4C(F)F)nc(N4CCOC[C@@H]4C)n3)CC2)CC1	Fibroblast growth factor receptor 3 (FGFR3, Homo sapiens, UniProt P22607, G697C)	KINOMEscan	–	1 µM	–	remaining binding	100%
CC1CCC(C(C)C)C(O)C1 (centres unmarked)	uncharacterized protein	binding, competitor, fluorescence displacement	–	20 µM, pH 7.4, together with: 1-NPN 20 µM	reference: 1-NPN alone	relative fluorescence	78.1%
N#Cc1ccc2c(-c3ccncc3)c(-c3ccc(F)cc3)nn2c1	Carbon catabolite-derepressing protein kinase (SNF1, Candida albicans, UniProt P52497)	kinase binding, competitor, MIB/MS competition, refers to: SNF1	Candida albicans cell lysate	10 µM	reference: DMSO	log2 fold change	-0.0995
CC[C@@H]1[C@H](F)C(=O)N[C@@H]1COc1nccc2cc(C(N)=O)c(OC)cc12	Mitogen-activated protein kinase 7 (MAPK7, Homo sapiens, UniProt Q13164)	ATP-site probe binding, ActivX profiling, refers to: Erk5	THP-1 cell lysate	0.04 mM, Lys2 site	–	inhibition	1.9%
Cc1nc(CSc2nc(SCc3ccc(C(C)C)cc3)nc(=O)[nH]2)cs1	DNA topoisomerase 2-alpha (TOP2A, Homo sapiens, UniProt P11388)	DNA decatenation, inhibitor, gel-based decatenation	–	1.95 µM	–	decatenated DNA	99.8%

Some of these lines once more:
SMILES	tested on	assay	test system	conditions	scale	endpoint	value
CC[C@@H]1[C@H](F)C(=O)N[C@@H]1COc1nccc2cc(C(N)=O)c(OC)cc12	Mitogen-activated protein kinase 7 (MAPK7, Homo sapiens, UniProt Q13164)	ATP-site probe binding, ActivX profiling, refers to: Erk5	THP-1 cell lysate	0.04 mM, Lys2 site	–	inhibition	1.9%
CC[C@H](C)[C@@H]1NC(=O)[C@H](Cc2ccc(O)cc2)NC(=O)[C@H](CC(C)C)NC(=O)[C@@H]2CCCN2C(=O)[C@@H](NC(=O)[C@H](CCCNC(=N)N)NC(=O)[C@H](CCCNC(=N)N)NC(C)=O)CSSC[C@@H](C(=O)N[C@@H](CCCNC(=N)N)C(=O)N[C@@H](CCCNC(=N)N)C(N)=O)NC(=O)[C@H](C(C)C)NC(=O)[C@@H]2CCCN2C(=O)[C@H](CC(=O)O)NC(=O)[C@H](Cc2ccc(O)cc2)NC(=O)[C@H](CO)NC1=O	KRAS G12D GDP-bound	affinity selection mass spectrometry	–	mixture library 1, together with: protein titration up to 5 µM	lower is stronger binding	lowest bound protein concentration	0.08 µM
CCNC(=O)/C=C/c1cccc(Br)c1	Sodium-dependent neutral amino acid transporter B(0)AT1 (SLC6A19, Homo sapiens, UniProt Q695T7)	inhibitor, FLIPR membrane potential	CHO-BC cells	100 µM	reference: uninhibited control	normalised signal	0.474 and 0.497 and 0.506 and 0.468 and 0.41
